Measured values of several laboratories.
Compare with care: the assays were run in different laboratories. Several values in a cell are separate wells, animals, samples, runs or records. ± marks the error that the study gave. Converted amounts (≈) assume the structure as drawn.
GBA1 R534H: Lysosomal acid glucosylceramidase (GBA1, Homo sapiens, UniProt P04062, R534H)
Chain of UniProt P04062 (whole entry, unmodified, looked up): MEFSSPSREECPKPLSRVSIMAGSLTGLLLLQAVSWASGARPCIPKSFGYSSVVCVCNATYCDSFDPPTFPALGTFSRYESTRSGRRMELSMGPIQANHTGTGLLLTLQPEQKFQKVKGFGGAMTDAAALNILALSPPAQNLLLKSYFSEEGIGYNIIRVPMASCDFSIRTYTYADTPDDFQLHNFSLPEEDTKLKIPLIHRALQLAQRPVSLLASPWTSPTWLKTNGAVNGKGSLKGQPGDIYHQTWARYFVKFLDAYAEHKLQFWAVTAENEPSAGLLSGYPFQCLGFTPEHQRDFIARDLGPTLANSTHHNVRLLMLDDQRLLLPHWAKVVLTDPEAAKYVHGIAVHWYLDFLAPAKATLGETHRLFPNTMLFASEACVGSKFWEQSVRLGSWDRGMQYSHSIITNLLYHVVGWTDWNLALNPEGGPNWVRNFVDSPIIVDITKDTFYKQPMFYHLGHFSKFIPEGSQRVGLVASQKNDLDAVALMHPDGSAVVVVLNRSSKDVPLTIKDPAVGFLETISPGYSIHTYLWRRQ

| Compound | tested on | test | system | setting | scale | quantity | result |
| --- | --- | --- | --- | --- | --- | --- | --- |
| COc1cc([C@@H]2O[C@@H](c3cc(OC)c(O[C@@H]4O[C@H](CO)[C@@H](O)[C@H](O)[C@H]4O)c(OC)c3)[C@H](CO)[C@H]2CO)cc(OC)c1O | 3T3-L1 | lipid accumulation, Oil Red O staining | – | 5 µM, 48 h, early differentiation | – | inhibition | 43.4 ± 2.48% |
| COC(=O)c1cc(NC2=NC(=O)C(=Cc3ccc(C)cc3)S2)ccc1OC(C)=O | MCF7 | GC-MS, measured: Spermine | – | 1 µM | relative to: DMSO | metabolite level | 0.03 fold change |
| CCOc1cncc(-c2ccc(NC(=O)C3(c4ccnc(NS(=O)(=O)C5CC5)n4)CCOCC3)nc2)n1 | colon cancer | cell viability, CellTiter-Glo | DMSO 0.1% | 72 h, line code 94 | – | IC50 | 199 nM |
| Cc1ncsc1-c1ccc(C(C)NC(=O)C2CC(O)CN2C(=O)C(NC(=O)CCCCCCCCCCN2CCCC(Nc3ncc(Cl)c(Nc4ccccc4S(=O)(=O)C(C)C)n3)C2)C(C)(C)C)cc1 (stereo not shown) | 22Rv1 | RNA-seq, measured: ZNF274 mRNA | – | concentration not given | relative to: DMSO | log2 fold change | -1.37 |
| Cn1c(=O)n(C2CCC(=O)NC2=O)c2ccc(C3CCN(CC(=O)Nc4cccc(CS(=O)(=O)N5CC[C@H](Nc6cccc(-c7sc(C(=O)O)c(OCC(=O)O)c7Cl)c6)CC5(C)C)c4)CC3)cc21 (stereo partly shown) | B16-F10 | HTRF, measured: phospho-STAT1 Tyr701 | – | 0.014 µM, added: IFN-γ | relative to: min-max normalised | pSTAT1 level | 29.2% and 21% and 29.3% and 26.7% and 19.2% and 20% |
| CC1(C)CC(=O)C2=C(C1)Oc1ccc3ccccc3c1C2c1c[nH]c2ccccc12 (stereo not shown) | 3T3-L1 | cell growth or viability, MTT | – | 72 h | – | IC20 | 106 µg/mL (≈ 270 µM) |
| O=C(C1=C[C@H](C2CCCCC2)C[C@H](OCc2ccc(CO)cc2)O1)N1CCN(Cc2ccc3c(c2)OCO3)CC1 | Trypanosoma cruzi | reporter mRNA translation, inhibitor, measured: capped polyadenylated Renilla luciferase mRNA | cell-free extract | concentration not given | relative to: control RNA | relative translation | 101% |
| OC[C@@H]1[C@@H](O)[C@H](O)[C@@H](O)CN1CCCCCOCC1CCC1 | GBA1 R534H | inhibitor, 4MU-β-D-glucopyranoside | – | added: 4MU-β-D-glucopyranoside | – | IC50 | 13000 nM |
| Cc1cc(NC(=O)c2cccc(N)c2)ccc1Nc1nccc(-c2cccnc2)n1 | HEK293 AP1 reporter cells | AP-1 reporter gene, inhibitor | – | 1 µM, 6 h, unit not given, added: PMA | relative to: PMA alone | reporter activity | 0.974 |
| CO[C@@H]1[C@@H](OC(N)=O)[C@@H](O)[C@H](Oc2ccc3c(O)c(NC(=O)c4ccc(O)c(CC=C(C)C)c4)c(=O)oc3c2C)OC1(C)C | HCT-116 BRCA2 wild-type | – | – | 250 µM, replicate A | relative to: untreated | colony survival | 77.9% |
| COc1cc(N2CCN(C(=O)C3CCCN3)CC2)ccc1Nc1ncc(Cl)c(Nc2ccccc2P(C)(C)=O)n1 (stereo not shown) | Ba/F3 EML4-ALK | flow cytometry | – | concentration not given, 0.5 h | – | early apoptotic cells | 3.41% and 3.33% and 3.25% |
| Nc1cc2cccnc2c2ncccc12.[Cl-].[Cl-].[Ru+2].c1cnc2c(c1)ccc1cccnc12.c1cnc2c(c1)ccc1cccnc12 | PC-3 | – | – | 10 µM, 24 h preincubation, 30 min irradiation | relative to: untreated irradiated cells | trypsin resistance improvement | ~40% |
| COc1ccc(NC(=O)c2ccc3[nH]c(-c4ccc(N(C)C)cc4)nc3c2)cn1 | HCT-116 | – | – | 8 µM, 16 h, unit not given | relative to: DMSO | caspase 3/7 activity | 2.48 |
| C=C1C(=O)OC2C1CCC(C)(O)C13C=CC(C)(C21)C1(C3)C(=O)OC2C3C(=C(C)CC(OC(=O)C=C(C)C)C21)CC(O)C3(C)Cl (stereo not shown) | AML12 mouse hepatocytes | lipid accumulation, Nile Red staining | – | maximum safe concentration, 24 h, added: palmitic acid/oleic acid | – | maximum inhibition | 35.5 ± 2.64% |
| OC[C@@H]1[C@@H](O)[C@H](O)[C@@H](O)CN1CCCCCOCc1ccc(-c2ccc(C(F)(F)F)cc2)cc1 | GBA1 R534H | inhibitor, 4MU-β-D-glucopyranoside | – | added: 4MU-β-D-glucopyranoside | – | IC50 | 400 nM |
| Cc1cc(NC2CCN(C)CC2)ccc1-c1cc2c(N3CCC[C@H](C(=O)NCc4ccc(OC(F)(F)F)cc4)C3)ncnc2[nH]1 | KARPAS-299 | cell growth or viability, MTT | – | 0.00032 µg/mL, 72 h | – | inhibition | 39.4% |
| COc1ccccc1-c1ccncc1C(=O)Nc1nnc(OCc2ccc(Cl)cc2)s1 | U2OS EJ2-GFP | EJ2-GFP reporter, GFP+/dsRed+ ratio | – | 15 µM, added: I-SceI transfection | relative to: DMSO | change in MMEJ frequency | 9.6% and 13% and 5.7% |
| O=C(C[Se]C(=O)C12CC3CC(CC(C3)C1)C2)Nc1cccc(C(F)(F)F)c1 | NCI60 CNS cancer panel | five-dose screen | – | – | – | GI50 | 2480 nM |
| Cc1ccc(-n2cc(CSc3nc4ccccc4n3Cc3cn(-c4ccc(C)cc4)nn3)nn2)cc1 | MDA-MB-231 | MTT | – | 31.3 ppm | – | cytotoxicity | 85.2% |
| CCCCCCc1cccc(C(O)CC(CO)NC(=O)CCCCCCCCCCNC(C)=O)c1 (stereo not shown) | HeLa | CERT activity, HPLC-MS/MS lipidomics, measured: ceramide 22 | – | 1 µM, 24 h, not cell-number normalised | – | ceramide level | 2010 pmol/sample and 1750 pmol/sample |

| Compound | tested on | test | system | setting | scale | quantity | result |
| --- | --- | --- | --- | --- | --- | --- | --- |
| Cc1cc(Cl)cc(-c2ccnc3cc(CN4C(=O)C5C(C4=O)C5(C)C)sc23)c1C[C@@H]1CNCCO1 (stereo partly shown) | CHP-212 parental (wild-type USP7) | annexin V-PI flow cytometry | – | 0.1 µM, 48 h | – | apoptotic cells (early plus late) | 18.7% and 14.1% and 19.6% |
| CNS(=O)(=O)Nc1nccc(Cc2c(C)c3ccc(Oc4ncccc4F)cc3oc2=O)c1F | WM 266-4 | cell viability, inhibitor, CellTiter-Glo | – | 7 days | – | IC50 | 3.68 nM |
| Cn1ncc2cc(-c3cncc(Cl)c3N3CCC4(CCNC4=O)CC3)ccc21 | LS174T | gene expression, microarray, measured: INHBB mRNA | – | concentration not given, 24 h | relative to: untreated cells | log2 fold change | 2.14 |
| CN1CCCNC(=O)c2cccc(c2)C(=O)NCCCN(C)CCCNc2cccc3c2C(=O)c2cccc(c2C3=O)NCCC1 | SAS | RNA-Seq, measured: ZNRF2 mRNA | – | 1 µM, 6 h | relative to: untreated cells | log2 fold change | -0.943 |
| CC(C)c1ccc(N(C)c2ccc3c(c2)OCC[C@H]3CNc2cnccc2C(=O)O)cc1 | KU-19-19 | cell growth or viability, ATP luminescence | – | 7 days | – | IC50 | 10.3 nM |
| CCCCN1C(=O)c2cccc3c(NCCCCCCCCCCN4CCOCC4)ccc(c23)C1=O | BHK-21 | confocal lambda scanning | – | – | relative to: water | emission blue shift in ER | 21 nm |
| CCNc1cc2c(cc1C)C1(c3cc(C)c(NCC)cc3O2)c2ccccc2C(=O)N1N=Cc1c[c-]c(-c2ccccn2)cc1.Cc1c(C)c(-c2ccc(-c3ccccc3)cc2)[c-](C)c1C.[Cl-].[Ir+3] | A549 | annexin V-FITC/PI flow cytometry | – | 0.5 x IC50, 24 h | – | late apoptotic cells | 10.8 ± 0.27% |
| C=C1C(=O)OC2C1CCC(C)(O)C13C=CC(C)(C21)C1(C3)C(=O)OC2C3C(C)C(=O)CC3C(=C)CC(OC(C)=O)C21 (stereo not shown) | AML12 | Western blot, measured: FoxO1 | – | concentration not given, added: palmitate/oleate | – | total protein level | no effect |
| COC(=O)c1cc(NC2=NC(=O)C(=Cc3ccc(N(C)C)cc3)S2)ccc1OC(C)=O | MCF7 | GC-MS, measured: Arachidonic acid | – | 1 µM | relative to: DMSO | metabolite level | -0.22 fold change |
| CCN(CC)CCNC(=S)Nc1ccc2nc(N3CCN(CC)CC3)cc(C)c2c1 | U2OS SSA-GFP reporter | single-strand annealing, flow cytometry | – | 15 µM | – | GFP-positive cells | 4.94% |
| O=S(=O)(c1ccc2c(c1)OCO2)n1cc(CCCCN2CCC(=C(c3ccc(F)c(F)c3)c3ccc(F)c(F)c3)CC2)nn1 | B16-F10-luc2 | TMT proteomics, measured: ORMDL1 | – | 5 µM, 2 h | – | protein level | increased |
| COc1ccc(N(C2CCCCC2)S(=O)(=O)C2CC3OC2C(c2ccc(O)cc2)=C3c2ccc(O)cc2)cc1 (stereo not shown) | MCF7 3xERE-luc, steroid-deprived | ERE luciferase reporter, agonist | – | – | relative to: vehicle | Emax | -7.03% |
| C=CC(=O)N1[C@@H](c2ccc3c(c2)OCO3)c2[nH]c3ccccc3c2C[C@H]1C(=O)NC1CC1 | rat DRG neurons | – | – | 0.3704 µM, 48 h, added: vincristine 40 nM | – | neuron degeneration | 81.1% and 75.7% |
| N#Cc1c(N)nc2c(c1-c1ccc(CO)o1)Cc1cc(O)ccc1-2 | exhausted human CD8+ T cells | flow cytometry | – | 20 µM, 24 h, cycle 6 | – | level, TIM-3, and LAG-3 | decreased |
| CC1(c2ccccc2)CC(C)(C)N(C(=O)c2cc([N+](=O)[O-])cc([N+](=O)[O-])c2)c2ccccc21 (stereo not shown) | Trypanosoma cruzi | reporter mRNA translation, inhibitor, measured: capped polyadenylated Renilla luciferase mRNA | cell-free extract | concentration not given | relative to: control RNA | relative translation | 108% |
| CC(=O)NCCCN(C)CCCNc1cccc2c1C(=O)c1cccc(NCCCN(C)CCCNC(C)=O)c1C2=O | SAS | RNA-Seq, measured: DKK1 mRNA | – | 1 µM, 6 h | relative to: untreated cells | log2 fold change | -0.314 |
| C=C1C(=O)OC2C1CCC(C)(O)C13C=CC(C)(C21)C1(C3)C(=O)OC2C3C(C)=CC(=O)C3=C(C)CCC21 (stereo not shown) | AML12 mouse hepatocytes | lipid accumulation, Nile Red staining | – | maximum safe concentration, 24 h, added: palmitic acid/oleic acid | – | maximum inhibition | 71.8 ± 5.42% |
| [Cl-].[Cl-].[Ru+2].c1ccc(-c2ccccn2)nc1.c1ccc(-c2ccccn2)nc1.c1ccc2cc3nc4c5cccnc5c5ncccc5c4nc3cc2c1 | SK-MEL-28 | cell growth, SRB | – | green light 523 nm, normoxia | – | TGI | 649 nM |
| COc1c(C)c(O)c(C(=O)C=Cc2ccccc2)c(OC)c1C | FaDu | SRB | – | – | relative to: normal over FaDu IC50 | selectivity index | 1.02 |
| CCN(CC)CC(=O)Nc1cccc(-n2cc(-c3ccc4ccc(-c5cn(-c6cccc(NC(=O)CN(CC)CC)c6)nn5)cc4c3)nn2)c1 | RCC4 | PCR angiogenesis array, measured: CXCL5 | – | 5 x IC50, 4 h, normoxia | relative to: untreated | fold regulation | -1.31 |

Excerpt of the above:
| Compound | tested on | test | system | setting | scale | quantity | result |
| --- | --- | --- | --- | --- | --- | --- | --- |
| COc1c(C)c(O)c(C(=O)C=Cc2ccccc2)c(OC)c1C | FaDu | SRB | – | – | relative to: normal over FaDu IC50 | selectivity index | 1.02 |
| O=C(C1=C[C@H](C2CCCCC2)C[C@H](OCc2ccc(CO)cc2)O1)N1CCN(Cc2ccc3c(c2)OCO3)CC1 | Trypanosoma cruzi | reporter mRNA translation, inhibitor, measured: capped polyadenylated Renilla luciferase mRNA | cell-free extract | concentration not given | relative to: control RNA | relative translation | 101% |
| C=CC(=O)N1[C@@H](c2ccc3c(c2)OCO3)c2[nH]c3ccccc3c2C[C@H]1C(=O)NC1CC1 | rat DRG neurons | – | – | 0.3704 µM, 48 h, added: vincristine 40 nM | – | neuron degeneration | 81.1% and 75.7% |
| COc1cc(N2CCN(C(=O)C3CCCN3)CC2)ccc1Nc1ncc(Cl)c(Nc2ccccc2P(C)(C)=O)n1 (stereo not shown) | Ba/F3 EML4-ALK | flow cytometry | – | concentration not given, 0.5 h | – | early apoptotic cells | 3.41% and 3.33% and 3.25% |
| Cc1ncsc1-c1ccc(C(C)NC(=O)C2CC(O)CN2C(=O)C(NC(=O)CCCCCCCCCCN2CCCC(Nc3ncc(Cl)c(Nc4ccccc4S(=O)(=O)C(C)C)n3)C2)C(C)(C)C)cc1 (stereo not shown) | 22Rv1 | RNA-seq, measured: ZNF274 mRNA | – | concentration not given | relative to: DMSO | log2 fold change | -1.37 |
| Cc1cc(NC2CCN(C)CC2)ccc1-c1cc2c(N3CCC[C@H](C(=O)NCc4ccc(OC(F)(F)F)cc4)C3)ncnc2[nH]1 | KARPAS-299 | cell growth or viability, MTT | – | 0.00032 µg/mL, 72 h | – | inhibition | 39.4% |
| Nc1cc2cccnc2c2ncccc12.[Cl-].[Cl-].[Ru+2].c1cnc2c(c1)ccc1cccnc12.c1cnc2c(c1)ccc1cccnc12 | PC-3 | – | – | 10 µM, 24 h preincubation, 30 min irradiation | relative to: untreated irradiated cells | trypsin resistance improvement | ~40% |
